{"data": "Measured values gathered from unrelated publications", "note": "A part holds a random share of what one study measured.", "UniProt Q13882, sequence (whole entry, looked up)": "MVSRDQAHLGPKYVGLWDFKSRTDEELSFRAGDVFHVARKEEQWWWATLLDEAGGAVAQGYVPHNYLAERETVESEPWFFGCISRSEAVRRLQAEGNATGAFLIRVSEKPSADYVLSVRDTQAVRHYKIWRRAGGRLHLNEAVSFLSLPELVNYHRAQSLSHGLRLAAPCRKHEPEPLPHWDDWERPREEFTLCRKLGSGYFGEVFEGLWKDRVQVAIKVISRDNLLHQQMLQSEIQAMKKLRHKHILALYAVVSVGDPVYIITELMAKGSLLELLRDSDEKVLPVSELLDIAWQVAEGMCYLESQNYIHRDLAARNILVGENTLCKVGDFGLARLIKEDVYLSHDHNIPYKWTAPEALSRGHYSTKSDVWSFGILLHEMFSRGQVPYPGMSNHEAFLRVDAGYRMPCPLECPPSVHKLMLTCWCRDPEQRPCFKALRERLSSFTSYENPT", "UniProt Q92918, sequence (whole entry, looked up)": "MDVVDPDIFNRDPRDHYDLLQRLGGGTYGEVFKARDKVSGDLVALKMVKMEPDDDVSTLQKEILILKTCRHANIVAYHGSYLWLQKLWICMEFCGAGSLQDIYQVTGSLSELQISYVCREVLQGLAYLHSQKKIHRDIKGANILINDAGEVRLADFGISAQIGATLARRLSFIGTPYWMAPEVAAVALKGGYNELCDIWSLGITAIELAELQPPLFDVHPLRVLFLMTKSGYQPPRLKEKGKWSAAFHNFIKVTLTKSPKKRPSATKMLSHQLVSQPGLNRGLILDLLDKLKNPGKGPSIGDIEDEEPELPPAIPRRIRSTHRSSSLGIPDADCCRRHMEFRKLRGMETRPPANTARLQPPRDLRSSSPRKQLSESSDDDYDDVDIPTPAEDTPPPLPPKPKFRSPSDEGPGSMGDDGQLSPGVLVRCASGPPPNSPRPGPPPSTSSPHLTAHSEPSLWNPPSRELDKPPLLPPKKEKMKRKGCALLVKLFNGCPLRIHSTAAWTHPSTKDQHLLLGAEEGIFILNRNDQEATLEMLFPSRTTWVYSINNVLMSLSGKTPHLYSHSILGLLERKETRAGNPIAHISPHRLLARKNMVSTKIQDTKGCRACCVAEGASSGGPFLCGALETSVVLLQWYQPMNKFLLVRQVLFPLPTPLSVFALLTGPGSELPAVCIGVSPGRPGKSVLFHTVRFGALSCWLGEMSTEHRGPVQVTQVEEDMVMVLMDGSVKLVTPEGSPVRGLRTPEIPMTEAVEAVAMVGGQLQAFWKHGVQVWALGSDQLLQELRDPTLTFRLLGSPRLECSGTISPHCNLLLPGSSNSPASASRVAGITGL", "UniProt P54753, sequence (whole entry, looked up)": "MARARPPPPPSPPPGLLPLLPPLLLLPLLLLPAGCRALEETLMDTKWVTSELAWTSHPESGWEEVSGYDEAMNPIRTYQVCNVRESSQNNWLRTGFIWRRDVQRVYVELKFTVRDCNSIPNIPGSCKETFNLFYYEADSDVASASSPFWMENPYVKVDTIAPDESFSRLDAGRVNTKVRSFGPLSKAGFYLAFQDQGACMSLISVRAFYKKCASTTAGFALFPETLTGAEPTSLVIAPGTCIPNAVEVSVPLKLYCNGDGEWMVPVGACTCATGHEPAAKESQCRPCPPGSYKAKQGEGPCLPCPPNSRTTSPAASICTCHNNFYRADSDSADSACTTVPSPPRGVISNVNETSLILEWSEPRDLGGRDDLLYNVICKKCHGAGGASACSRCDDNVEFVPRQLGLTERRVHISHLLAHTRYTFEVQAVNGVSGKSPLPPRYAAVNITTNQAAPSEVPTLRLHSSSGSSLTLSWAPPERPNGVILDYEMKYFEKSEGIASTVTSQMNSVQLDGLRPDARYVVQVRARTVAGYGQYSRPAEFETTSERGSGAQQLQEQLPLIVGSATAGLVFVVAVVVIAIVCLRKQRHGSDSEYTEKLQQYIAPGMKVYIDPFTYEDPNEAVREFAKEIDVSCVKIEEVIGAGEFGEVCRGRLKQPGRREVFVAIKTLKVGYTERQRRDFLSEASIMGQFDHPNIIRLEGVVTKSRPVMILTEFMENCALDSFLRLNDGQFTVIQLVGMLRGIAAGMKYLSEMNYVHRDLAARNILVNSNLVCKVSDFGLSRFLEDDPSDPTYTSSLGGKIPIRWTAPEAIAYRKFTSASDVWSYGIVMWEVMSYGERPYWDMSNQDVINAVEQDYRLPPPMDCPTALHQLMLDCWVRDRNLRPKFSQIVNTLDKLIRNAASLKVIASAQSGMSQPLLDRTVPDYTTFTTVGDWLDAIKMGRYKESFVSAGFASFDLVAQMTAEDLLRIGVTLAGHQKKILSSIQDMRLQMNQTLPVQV", "UniProt P78368, sequence (whole entry, looked up)": "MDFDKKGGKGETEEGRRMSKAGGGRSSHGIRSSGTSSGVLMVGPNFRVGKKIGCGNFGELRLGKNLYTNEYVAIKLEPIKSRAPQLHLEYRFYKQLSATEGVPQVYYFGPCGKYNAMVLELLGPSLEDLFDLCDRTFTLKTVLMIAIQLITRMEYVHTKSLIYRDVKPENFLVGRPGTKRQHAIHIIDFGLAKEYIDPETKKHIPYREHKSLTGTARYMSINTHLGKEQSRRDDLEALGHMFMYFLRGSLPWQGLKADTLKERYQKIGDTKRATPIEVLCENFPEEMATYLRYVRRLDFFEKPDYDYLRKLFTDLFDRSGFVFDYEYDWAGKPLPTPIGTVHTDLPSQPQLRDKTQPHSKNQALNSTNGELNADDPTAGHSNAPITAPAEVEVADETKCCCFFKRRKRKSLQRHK"}
{"data": "Block 1", "target": "Eukaryotic initiation factor 4A-I (EIF4A1, Homo sapiens, UniProt P60842, residues 1-406, full length assumed)", "technique": "RNA Bind-n-Seq", "molecule type": "RNA", "medium": "in vitro", "tested at": "90 pmol", "notes": "4-mer, random 30-nt RNA, single round", "together with": "3 µM iPr-DMDA-PatA, 2 mM ADP, 2 mM phosphate", "reference": "input library", "reading": "higher = stronger binding", "UniProt P60842, sequence (whole entry, looked up)": "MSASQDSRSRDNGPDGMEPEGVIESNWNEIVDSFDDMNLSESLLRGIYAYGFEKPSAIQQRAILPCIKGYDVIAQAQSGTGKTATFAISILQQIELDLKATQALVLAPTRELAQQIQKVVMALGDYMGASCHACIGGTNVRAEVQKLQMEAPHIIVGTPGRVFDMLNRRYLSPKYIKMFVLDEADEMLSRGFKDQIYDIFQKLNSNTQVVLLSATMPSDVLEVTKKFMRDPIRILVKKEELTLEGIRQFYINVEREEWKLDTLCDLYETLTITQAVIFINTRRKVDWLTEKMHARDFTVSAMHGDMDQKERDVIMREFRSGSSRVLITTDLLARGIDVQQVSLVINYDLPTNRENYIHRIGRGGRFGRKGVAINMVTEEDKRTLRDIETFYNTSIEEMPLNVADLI"}
{"Oligonucleotide": "CUGU", "4-mer enrichment [fold]": 0.867}
{"Oligonucleotide": "CGAA", "4-mer enrichment [fold]": 1.29}
{"Oligonucleotide": "GAGG", "4-mer enrichment [fold]": 0.827}
{"Oligonucleotide": "GAAU", "4-mer enrichment [fold]": 1.32}
{"Oligonucleotide": "UAGU", "4-mer enrichment [fold]": 1.09}
{"Oligonucleotide": "CAUA", "4-mer enrichment [fold]": 1.15}
{"Oligonucleotide": "CGCA", "4-mer enrichment [fold]": 0.848}
{"Oligonucleotide": "ACUG", "4-mer enrichment [fold]": 0.986}
{"data": "Block 2", "target": "Aurora kinase B (AURKB, Homo sapiens, UniProt Q96GD4)", "effect on": "enzyme activity", "mode": "inhibitor", "tested at": "0.5 µM", "reference": "control", "UniProt Q96GD4, sequence (whole entry, looked up)": "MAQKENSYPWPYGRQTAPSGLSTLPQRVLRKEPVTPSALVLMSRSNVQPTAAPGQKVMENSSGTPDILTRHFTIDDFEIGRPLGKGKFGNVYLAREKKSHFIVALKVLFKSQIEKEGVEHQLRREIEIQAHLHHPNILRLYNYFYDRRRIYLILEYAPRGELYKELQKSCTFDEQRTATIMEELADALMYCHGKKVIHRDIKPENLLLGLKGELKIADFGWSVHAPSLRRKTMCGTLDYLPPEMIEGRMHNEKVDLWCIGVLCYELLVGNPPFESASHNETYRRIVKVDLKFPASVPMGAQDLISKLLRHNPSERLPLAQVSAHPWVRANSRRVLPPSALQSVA"}
{"Compound": "O=C1NC(=O)C(c2cn(CCCn3ccnc3)c3ccccc23)=C1Nc1ccccc1", "remaining activity": "95.4%"}
{"Compound": "Nc1[nH]nc2nc3ccccc3nc12", "remaining activity": "101%"}
{"Compound": "Cc1nc(-c2ccccc2)c(-c2ccncc2)o1", "remaining activity": "97.3%"}
{"Compound": "Nc1ccc2ncnc(NCCc3ccc(Oc4ccccc4)cc3)c2c1", "remaining activity": "99.1%"}
{"Compound": "Cc1ccc(NC(=O)c2ccc(CN3CCN(C)CC3)cc2)cc1Nc1nc(-c2cccnc2)cs1", "remaining activity": "99.5%"}
{"Compound": "O=C(O)c1ccc2c3c1cccc3c(=O)n1c3ccccc3nc21", "remaining activity": "82.5%"}
{"Compound": "Oc1ccc(-c2nc(-c3ccncc3)c(-c3ccc(F)cc3)[nH]2)cc1", "remaining activity": "104%"}
{"Compound": "COc1ccc(CNC(=O)Nc2ncc([N+](=O)[O-])s2)cc1", "remaining activity": "97.1%"}
{"Compound": "Nc1ncnc2n[nH]c(Nc3ccc(F)cc3)c12", "remaining activity": "96.9%"}
{"Compound": "COc1cc2ncnc(Nc3ccc(Oc4ccccc4)cc3)c2cc1OC", "remaining activity": "50.9%"}
{"Compound": "O=C(CCCc1ccc(-c2ccccc2F)cc1)Nc1ccc(O)cc1", "remaining activity": "106%"}
{"Compound": "COc1ccc(C(=O)Nc2sc3c(c2C(N)=O)CCCC3)cc1OC", "remaining activity": "96.2%"}
{"Compound": "CN(C)c1ccc(C=C2C(=O)Nc3ccccc32)cc1", "remaining activity": "61.4%"}
{"data": "Block 3", "Compound": "CC(C)(O)c1cncc(-c2nc3ccc(F)cc3n2C2CC2)c1", "effect on": "cell-free assay", "technique": "competition with immobilised ligand", "tested at": "1 µM"}
{"target": "EPHB3 (Homo sapiens, UniProt P54753)", "remaining binding [%]": 100}
{"target": "CSNK1G2 (Homo sapiens, UniProt P78368)", "remaining binding [%]": 100}
{"target": "PTK6 (Homo sapiens, UniProt Q13882)", "remaining binding [%]": 100}
{"target": "MAP4K1 (Homo sapiens, UniProt Q92918)", "remaining binding [%]": 99}
{"data": "Block 4", "target": "Hepatocyte nuclear factor 3-alpha (Foxa1, Mus musculus, UniProt P35582, residues 1-468, full length assumed)", "technique": "EMSA with sequencing", "molecule type": "double-stranded DNA, one strand shown", "medium": "in vitro", "tested at": "10 and 20 nM", "notes": "whole designed probe, mean of two concentrations, ends assumed", "reference": "negative control set to 0", "reading": "higher = stronger binding", "UniProt P35582, sequence (whole entry, looked up)": "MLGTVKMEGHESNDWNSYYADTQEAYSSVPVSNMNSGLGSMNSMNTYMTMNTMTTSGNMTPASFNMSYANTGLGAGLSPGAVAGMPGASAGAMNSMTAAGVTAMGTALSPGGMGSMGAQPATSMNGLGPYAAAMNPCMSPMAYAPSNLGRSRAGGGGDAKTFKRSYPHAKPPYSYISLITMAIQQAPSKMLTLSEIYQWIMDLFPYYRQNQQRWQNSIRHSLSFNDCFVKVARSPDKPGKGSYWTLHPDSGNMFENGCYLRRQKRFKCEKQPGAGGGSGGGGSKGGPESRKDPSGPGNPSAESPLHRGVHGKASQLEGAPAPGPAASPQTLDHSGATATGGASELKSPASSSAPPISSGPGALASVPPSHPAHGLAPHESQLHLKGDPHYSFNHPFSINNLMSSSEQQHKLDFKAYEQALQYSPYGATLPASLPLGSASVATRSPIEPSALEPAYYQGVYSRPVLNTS"}
{"Oligonucleotide": "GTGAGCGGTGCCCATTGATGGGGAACCTTTGAGTTTTCAGAGTGACTCAACACAGTTGAACTATGAATCACTTCAGTATTGTCTGTGCACACCAAAGCCCTGGCATATGGAGCAGGACTGTACACAAGAAAGCTCTTTCCCAGCCCTGAGCTCTCAGAGCTTTCCCTAGGTGTGTGATGAGGCCACTTTCCCCCATCACTTCCCCAAGTCTAGATGTCCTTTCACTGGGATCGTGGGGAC", "normalised bound fraction [ratio]": -0.011}
{"Oligonucleotide": "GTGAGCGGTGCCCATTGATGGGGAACGTAGGAGTTACTCTATAAAACAGAATGACAGAGGTTTTGTCTATAAAACATTAGACTATGTAGACTATTAACTCTATGGAAATCTAATAAGCCATGTTTACTTTATTTAACCTATCCCAAGTAATTTTAGGCTGCTTTAGCCATTATGTGGTTTCTCCAAGAATCATTGTGAAAAGTGATCGCATTTTATTTCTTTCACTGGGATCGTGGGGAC", "normalised bound fraction [ratio]": 0.384}
{"Oligonucleotide": "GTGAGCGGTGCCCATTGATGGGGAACTTCTGGGCCCAAAATTCAGGTAAACAATTGCATTTCCACTTGGAATACAAATACTTCATAACTTCAGAATTCATTACCTCTTGTACCTAGTACATGTTTACTCTGTCAGTTACAACCTTTTGAAAATTTAATTCAAAAATTTTCTGTTAGAACTGAAATTCATGGACTTTCCGTGTCTTTGGATTAATTTTACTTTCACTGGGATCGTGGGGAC", "normalised bound fraction [ratio]": 0.274}
{"Oligonucleotide": "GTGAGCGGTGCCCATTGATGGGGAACACACAGAACTCAAATGTACAAATTCATAAATCTCATTTTGAGATGCACTTTCAGTTGAGGGACATTGAACAAGTAAGCTCATAAACATAAAAGTAAACAAGGGCAATAAATGTAAATATTTGTACACAATTATAAGTAATATAGAAGCTATCAAAATCCAAGTTCTTCTCCTGTCCATTAGCACACAGCCAGGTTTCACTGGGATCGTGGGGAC", "normalised bound fraction [ratio]": 0.493}
{"Oligonucleotide": "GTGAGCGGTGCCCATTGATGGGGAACCAGAGGGGCTCTCAGTCCACTCTGCGGACTGCTGACTGAGACTTTGCAGACCTGCTCCCCTTCTCCCTGCTACCTGCCTGCCGGAAGAGTTGAGTCATCTCAGCCCACCTCCTGCACCCAGAGCTGTGAGTCACAGTTGTTCAAACACGGAGGTGTGAATCACTCAACTTCTAGCCTTTGAGACATCTTGTGTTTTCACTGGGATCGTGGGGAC", "normalised bound fraction [ratio]": 0.0806}
{"note": "Excerpt of the above (block 1):"}
{"Oligonucleotide": "UAGU", "4-mer enrichment [fold]": 1.09}
{"Oligonucleotide": "CAUA", "4-mer enrichment [fold]": 1.15}
